Experimental data gathered from unrelated publications.
Numbered parts are unrelated; each lists some results of a single study. Changes are numbered by the printed parent chain.

Block 1
Target: CCNE1, cyclin fold, Cln2 fusion (human)
Method: yeast growth competition, sequencing
Matrix: yeast
Notes: strong parent motif
Relative to: not given
Direction: higher = stronger binding
Starting sequence: SCAPER docking peptide (human); SNARRSLNFGGST
| Variant | normalised enrichment score |
| --- | --- |
| YNARRSLNFGGST [S1Y] | 1.4 |
| SNARRSLNFYGST [G10Y] | 1.04 |
| SNARRSLNKGGST [F9K] | -0.218 |
| SNARRSLNFGGSH [T13H] | 0.405 |
| SNARRALNFGGST [S6A] | 2.76 |
| SNARRSYNFGGST [L7Y] | 0.387 |
| SNSRRSLNFGGST [A3S] | -0.192 |
| SNARRSWNFGGST [L7W] | 0.142 |
| SNARRSLNFGSST [G11S] | 0.742 |
| SNARLSLNFGGST [R5L] | 0.326 |
| SNARRSLNFGIST [G11I] | 0.733 |
| SNARCSLNFGGST [R5C] | -0.108 |
| SNARRSLNFFGST [G10F] | 0.561 |
| SNARRSHNFGGST [L7H] | 0.309 |
| KNARRSLNFGGST [S1K] | 0.827 |
| SNARRSLIFGGST [N8I] | 1.51 |
| SNARRSPNFGGST [L7P] | 0.122 |
| SNARISLNFGGST [R5I] | 0.871 |
| SNARRSLNLGGST [F9L] | 0.291 |
| SNARRSLNTGGST [F9T] | 0.0276 |
| SNARRSLNFGGWT [S12W] | 1.09 |
| SNARYSLNFGGST [R5Y] | -0.0757 |
| SNARNSLNFGGST [R5N] | -0.76 |
| SNARRSLNFSGST [G10S] | 0.347 |
| SNARRSLNQGGST [F9Q] | 0.133 |

Block 2
Target: CREB3L4, bZIP domain (human)
Method: DHFR protein complementation
Matrix: yeast
Notes: single substitutions, most at no-binding floor
Relative to: wild-type JUN-FOS pair
Direction: higher = stronger binding
Starting sequence: JUN, bZIP domain (human); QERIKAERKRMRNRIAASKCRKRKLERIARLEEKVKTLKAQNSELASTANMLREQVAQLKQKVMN; partner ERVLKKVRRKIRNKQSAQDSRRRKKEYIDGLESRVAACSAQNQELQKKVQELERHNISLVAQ
| Variant | binding fitness [natural log] |
| --- | --- |
| V35C | -1.13 |
| T37S | -1.21 |
| T48H | -1.47 |
| E33S | -1.44 |
| A40V | -1.42 |
| K39Q | -1.53 |
| E32W | -1.54 |
| K36C | -1.47 |
| L52A | -1.53 |
| S43P | -1.37 |
| T37V | -1.47 |
| Q55H | -1.49 |
| K34T | -1.53 |
| M51V | -1.42 |
| A57H | -1.4 |
| K39S | -1.37 |
| M51A | -1.24 |

Block 3
Target: ABI1, truncated, D143A, DHFR fusion (Arabidopsis thaliana)
Method: DHFR PCA, deep sequencing
Matrix: yeast
Notes: methotrexate growth selection, single substitutions
Added: (+)-ABA 0.39 µM
Relative to: wild-type fitted maximum
Direction: higher = stronger binding
Starting sequence: PYL1, truncated, DHFR fusion (Arabidopsis thaliana); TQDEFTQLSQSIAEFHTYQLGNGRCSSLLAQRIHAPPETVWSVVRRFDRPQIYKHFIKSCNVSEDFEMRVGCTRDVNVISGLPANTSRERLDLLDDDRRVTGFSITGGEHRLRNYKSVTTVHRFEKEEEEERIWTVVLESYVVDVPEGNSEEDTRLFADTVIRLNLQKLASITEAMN; partner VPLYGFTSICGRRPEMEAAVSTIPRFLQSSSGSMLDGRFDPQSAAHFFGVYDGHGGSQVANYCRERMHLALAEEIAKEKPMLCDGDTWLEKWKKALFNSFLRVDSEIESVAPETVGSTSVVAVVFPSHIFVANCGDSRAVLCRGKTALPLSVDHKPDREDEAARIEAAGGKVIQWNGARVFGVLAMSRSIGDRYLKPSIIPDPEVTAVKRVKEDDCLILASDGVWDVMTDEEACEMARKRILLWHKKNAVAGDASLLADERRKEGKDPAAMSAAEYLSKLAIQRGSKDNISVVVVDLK
| Variant | relative binding score |
| --- | --- |
| I52V | 62.9% |
| S63L | 8.13% |
| R155F | -22% |
| I105C | -6.55% |
| I133M | 40% |
| I172V | 59.1% |
| K54N | -8.47% |
| Q7W | 46.2% |
| D153E | 56.8% |
| E128T | 48.2% |
| Q167K | 59.8% |
| E127L | 45.8% |
| R155A | -1.08% |
| M176P | 13% |
| S87V | 59.8% |
| D48S | -5.54% |
| V44Y | -13% |
| S63Q | 37.6% |
| S140N | -9.78% |
| W41R | 6.22% |
| V62N | -0.405% |
| V70A | 15.5% |

Block 4
Target: Histone acetyltransferase KAT6A, both winged helices, GST fusion (KAT6A, Homo sapiens, UniProt Q92794, residues 1-181)
Method: protein binding microarray
Molecule type: double-stranded DNA, one strand shown
Matrix: in vitro
Tested at: not given
Notes: 8-mer, flanks averaged, mean of 2 arrays, mostly near background
Relative to: not given
Direction: higher = stronger binding
Residues (chain): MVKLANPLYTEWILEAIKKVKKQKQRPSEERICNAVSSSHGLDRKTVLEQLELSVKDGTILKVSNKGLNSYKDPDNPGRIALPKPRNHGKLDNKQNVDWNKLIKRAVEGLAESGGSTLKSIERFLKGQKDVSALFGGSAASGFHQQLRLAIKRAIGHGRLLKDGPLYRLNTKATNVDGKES
| Sequence | E-score |
| --- | --- |
| AGCCTTCA | -0.0956 |
| CGGGATGC | 0.221 |
| AGCGTGAG | 0.157 |
| ACTATATA | -0.0602 |
| ACATACAG | -0.0351 |
| GTGGGTGA | -0.0483 |
| CTGATTCC | -0.062 |
| GTCCATGA | 0.019 |
| CTGCCCGC | 0.281 |
| CATACGTC | -0.02 |
| CTATGTGC | -0.0222 |
| AATCCTGG | -0.137 |
| GATCGGCA | 0.12 |
| CCATGGGC | -0.163 |
| CAGATGTC | -0.0142 |
| GGTCCACC | -0.123 |
| AGGGTGTC | -0.337 |
| CACATGAA | -0.113 |
| CAGCCCGC | 0.0632 |
| AAATTGAG | -0.183 |
| TAGCTTAA | -0.0615 |

Block 5
Target: RNA binding protein fox-1 homolog 2, RRM domain, GST-SBP tag (RBFOX2, Homo sapiens, UniProt O43251-10, residues 100-194)
Method: RNA Bind-n-Seq
Molecule type: RNA
Matrix: in vitro
Tested at: 365 nM
Notes: natural RNA segment, single round, ends assumed
Relative to: no-protein control
Direction: higher = stronger binding
Shared flanks, not repeated: GGGAGUUCUACAGUCCGACGAUC … UGGAAUUCUCGGGUGCCAA
Residues (chain): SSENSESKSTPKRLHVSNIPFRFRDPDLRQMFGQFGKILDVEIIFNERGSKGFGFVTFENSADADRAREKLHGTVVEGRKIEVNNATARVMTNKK
| Sequence | RBNS enrichment (R) |
| --- | --- |
| GGAAUGUUAGUACCAAAUUUCUACAUGUGAGCUUUGGGGGCCAGGUCCUAGAGAGCCCAAGUGGGAGAAUGGUAUUUAGGAGAUGAAAAACCUGGCCUAGCAAGAGCUUU | 0.984 |
| ACUCAUGUUUAAAAGGACAAAGGGGAAUGAAGGUCAGUGAGAUCUAAAAAGUGUAUUUCUUUGCCAUUUGAUUUGGCUGAAGGACAGUCAGCAUCCUGUGUGAGAACACA | 0.804 |
| GAAAGUAAGGGAUGCCUGGCCUAGCGGCUCGGCACAGAGGGAGGGGCAUCCCUGAGCUAAUCCCCACCCUCCAGUACAUUCCUAGGUCCUGGUCAUUUAGUUCAGAACAG | 0.255 |
| GAAAAAAUACUUGUCUUAUGUUGUUUUAGCAAGGGAGUUCAGCCAAGUGACAGGAAAGAUUCCCUGGUCUGCAUCUAAACAUUAGUCAACAGAAGGAAAAGGCUCUUUUC | 1.05 |
| UUCAAGUAGGAAAUUUUAAUUUAAAAUUAUUUUGCCACUAUAAAAUUUUAUUUUAAAUUUAUUUUUAAAUAAAAGAAAUGAUAAGAGAAAUAAUAUUGACAAAGUGAUUC | 1.55 |
| UUAUUUAUAAGGGAAUGCCUUUAAAAGCACCCAAGUCACCUGUUGAACACUUUGCUGCUUAGAAAUUUCUUCCGCUAGUUAACCUAAAUCAUCUCUCUCAAGUUCAAAGU | 0.6 |
| GGGUCUCAGGGCCUGACAUAGGGGUCUUAGCUCAGCCAUAUCCCUCUGAGGCACAGGGCGAGCAGGGACCAAGUAGCAGACGAGUCGAUGCUUCACCUGGCAUCUAGCCA | 0.252 |
| CCCUGAGUGGCAGUGUUCCCUCAUCCACCCUGUUGCCCCUUAGCUAGAAGCUGUAAUGGAUGCUCUUUUCCUCCGAUUAUGUAGAAAUGUGCAUUCAAAAGGAAUAGAAC | 0.293 |
| UUUUAUGUGAACUUUUUUAAUGUCUUUAAUUUGGAUUUUUUUUUUUUUUAGUAUUUUAACAUUUAUUUUAAUCCUGAAGACACUUUUUUGAUUGUGUUUCGUAAGAGACA | 3.3 |
| AGAGACAGGACCAGAGAGGCGAUGUCACACAGCCAGUGAUGUCAGGACAUAAAUUCAGAGUGGCUGGCCCUGAAUAAUGCCAGGCUGGGCAGCGAGAGGACAGGCUAUGG | 1.06 |
| CUGGGAAGAUGGGGUAUUUCCCACUUCCAGCAACGAAAUAACAAAUGAAAAGUUGCAUACUUAUUGAUGUAUUGUAUGAGCCAGUAGCAUUUUAUGUACAAAACAGAAGU | 0.813 |
| CUCACAGCUCCUUUCUAGGUCCUUCUUUCCUCAUUGGAAGCAAAGACCUAGCCAACAACAGCACCUCAAUCUGAUACACUCCCGAUGCCACAUUUUUAACUCCUCUCGCU | 0.731 |

Block 6
Target: RING finger protein unkempt homolog, zinc fingers 1-6, GST-SBP tag (UNK, Homo sapiens, UniProt Q9C0B0, residues 30-357)
Sequence of UniProt Q9C0B0 (30-357, looked up): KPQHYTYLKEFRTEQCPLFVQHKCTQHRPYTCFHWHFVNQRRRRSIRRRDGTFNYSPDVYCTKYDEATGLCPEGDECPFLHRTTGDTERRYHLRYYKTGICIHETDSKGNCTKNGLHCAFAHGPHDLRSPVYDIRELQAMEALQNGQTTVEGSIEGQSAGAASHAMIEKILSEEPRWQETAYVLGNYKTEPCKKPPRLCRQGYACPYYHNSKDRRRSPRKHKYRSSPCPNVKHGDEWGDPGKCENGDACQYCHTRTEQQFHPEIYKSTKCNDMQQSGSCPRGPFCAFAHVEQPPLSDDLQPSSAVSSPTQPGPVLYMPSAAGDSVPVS
Method: RNA Bind-n-Seq
Molecule type: RNA
Matrix: in vitro
Tested at: not given
Notes: RNA with constant flanks, human and mouse sites, ends assumed
Relative to: input RNA pool
Direction: higher = stronger binding
Shared flanks, not repeated: GGGAGUUCUACAGUCCGACGAUC … CAACAGAGGAUUGAGCAUCA
| Sequence | bound/input enrichment |
| --- | --- |
| AUGUCAGAUCUCUUCAACAAACUUGUCAUGAGGCGCAAAGGUAUCUCUGGAAAGGGACCUAGCACUGGAACCAGUGAGGGACCUGGAGGAGCCUUCUCUCGAAUGUCAGACUCCAUCCCA | 0.0647 ratio |
| AUGCAUCUGAAGAAGCCAGGAGGCUUUGAUGUAUCCGUGUUCUACAGGGACAUCAUCACCACCGCUGAGGACGAGGACCUUGGGGUUCACUUCGAGGAGUCAAGCAAGCUGGAAGACCUG | 0.123 ratio |
| UUGCUGUCCUCUUGCUGAUGGCUGCUAGAUUUAAUUUAUUUGCUUCCCUCCUUGAUAACAUUAGUGAUUCUGAUUUCAGUUUUUCAUUUGUUUUGCUUUUGUUUUUUUCCUCGUGUAACA | 3.26 ratio |
| GGGAGCAUUGCAGAGCAUUGUGCCUCUUUUCAUAUAUAUGAAUAAGUUUUACAUCGAAACCAAGCUUAACAGAGACUUAAAAGAUGACCUUAUAAAGCUGUUUACGGAACAUGUUGCAGA | 0.182 ratio |
| UCUAUCACUGAUGCUAAAAGUUGUGAGGGACAAAAUCCUGAGCUACUUCCAAAAACUCCUAUUAGUCCUCUGAAAACGGGGGUAUCGAAACCAAUUGUGAAGUCAACUUUAUCCCAGACA | 1.83 ratio |
| CGUGCACUGGGUUAAAAACGACAACGAGCACCAACCAUGAAAGAUCCAAGUCGCAGCAGUACUAGCCCAAGCAUCAUCAAUGACGAUGUGAUUAUUAACGGUCAUUCUCAUGAAGAGGAU | 0.126 ratio |
| GUGAUUGGCUAAUAAAUGUUUGUCAAAGGAAGAAAGAGCUAAAAGCUCGAACAGUAUGGCUUGGAUGUCCAGAGAAGUGUGAAGAGAAACAUCCUAGGAAUUCUAUCAAAAAUCAGAAAU | 0.348 ratio |
| CACAUGCUGCCGGGCCAGAACCAGUUCCUACUGCCUGGCGCCCCGGCGGUCCAGCUCCCGCAGCAGCUCUCAGCCCUGCCGGCCAACGUGGGCGGGCAGAUCCUGGCGGCCGCUGCCCCC | 0.101 ratio |
| GAGAAGAUUAUCUGUAAUUUAAAGCCGGCUUUAAAGCUUCGUCUUCGAUUCAUCACGCACAUUAGCAAGAUGGAGCCGGCAGUGCCACCCCAGGCCCUCAACAGCGGGUCUCCAGCACCU | 0.152 ratio |
| ACAAUACUUUCCGUGGUCGUAUUCAUUAAAUGUUACUACAUUUCUGAAUUUUUGCAAAAAUGUAUUUUAUCAUAAAAUGGCAUUAUUUUAGAAAAUUUUAAAAACUGACAUGGUCAAUUC | 10.6 ratio |
| UCGGGGUGGAAGUCCAUGAUUCAGUCUCAUCCCCAUUUAGUGGCAGAAGCGUUCCGAGCACUAGCAUCUUCACAGUGUCCACAGUUUGGUAUUCCACGCAAAAGGUUAAAGCAGUCUUGA | 0.0895 ratio |
